Measured values of several laboratories.
Compare with care: the assays were run in different laboratories. Values joined by “and” are separate records of one study, mostly repeats; a detail may differ. ± gives the spread as reported.
Sequence of UniProt D0VWV4 (whole entry, looked up): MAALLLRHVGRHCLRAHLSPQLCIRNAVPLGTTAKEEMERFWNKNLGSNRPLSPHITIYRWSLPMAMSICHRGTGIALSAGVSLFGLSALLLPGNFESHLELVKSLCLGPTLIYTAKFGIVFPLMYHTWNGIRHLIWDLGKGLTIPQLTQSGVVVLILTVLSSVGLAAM
Sequence of UniProt Q9EP73 (whole entry, looked up): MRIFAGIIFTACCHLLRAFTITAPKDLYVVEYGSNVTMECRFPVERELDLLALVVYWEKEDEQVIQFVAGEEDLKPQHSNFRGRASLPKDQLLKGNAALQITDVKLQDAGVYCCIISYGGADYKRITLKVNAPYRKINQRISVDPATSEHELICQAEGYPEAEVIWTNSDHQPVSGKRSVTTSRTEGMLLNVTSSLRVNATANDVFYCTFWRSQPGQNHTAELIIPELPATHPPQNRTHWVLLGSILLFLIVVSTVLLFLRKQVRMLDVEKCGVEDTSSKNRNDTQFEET
Sequence of UniProt A5GZW8 (whole entry, looked up): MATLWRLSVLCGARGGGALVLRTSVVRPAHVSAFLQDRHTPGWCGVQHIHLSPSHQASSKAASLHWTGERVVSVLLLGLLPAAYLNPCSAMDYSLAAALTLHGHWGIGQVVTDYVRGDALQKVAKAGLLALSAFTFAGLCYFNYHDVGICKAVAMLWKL
Sequence of UniProt Q007T0 (whole entry, looked up): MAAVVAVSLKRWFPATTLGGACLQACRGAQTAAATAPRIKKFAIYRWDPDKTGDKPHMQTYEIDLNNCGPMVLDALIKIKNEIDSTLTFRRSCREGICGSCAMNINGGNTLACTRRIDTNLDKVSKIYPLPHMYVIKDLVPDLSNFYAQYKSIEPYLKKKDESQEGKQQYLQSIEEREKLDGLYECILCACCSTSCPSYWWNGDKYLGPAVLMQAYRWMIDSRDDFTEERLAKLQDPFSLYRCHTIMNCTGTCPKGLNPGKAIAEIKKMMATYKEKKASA
Sequence of UniProt P27361 (whole entry, looked up): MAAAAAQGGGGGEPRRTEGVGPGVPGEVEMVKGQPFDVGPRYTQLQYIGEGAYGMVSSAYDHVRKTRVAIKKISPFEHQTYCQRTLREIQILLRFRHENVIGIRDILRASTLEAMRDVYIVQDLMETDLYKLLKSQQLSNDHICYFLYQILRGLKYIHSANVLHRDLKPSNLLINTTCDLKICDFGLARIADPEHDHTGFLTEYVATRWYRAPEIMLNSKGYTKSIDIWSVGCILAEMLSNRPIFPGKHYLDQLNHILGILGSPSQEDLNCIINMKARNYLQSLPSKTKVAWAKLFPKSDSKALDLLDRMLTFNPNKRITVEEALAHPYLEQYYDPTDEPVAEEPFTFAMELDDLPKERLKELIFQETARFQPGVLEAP
Sequence of UniProt Q16602 (whole entry, looked up): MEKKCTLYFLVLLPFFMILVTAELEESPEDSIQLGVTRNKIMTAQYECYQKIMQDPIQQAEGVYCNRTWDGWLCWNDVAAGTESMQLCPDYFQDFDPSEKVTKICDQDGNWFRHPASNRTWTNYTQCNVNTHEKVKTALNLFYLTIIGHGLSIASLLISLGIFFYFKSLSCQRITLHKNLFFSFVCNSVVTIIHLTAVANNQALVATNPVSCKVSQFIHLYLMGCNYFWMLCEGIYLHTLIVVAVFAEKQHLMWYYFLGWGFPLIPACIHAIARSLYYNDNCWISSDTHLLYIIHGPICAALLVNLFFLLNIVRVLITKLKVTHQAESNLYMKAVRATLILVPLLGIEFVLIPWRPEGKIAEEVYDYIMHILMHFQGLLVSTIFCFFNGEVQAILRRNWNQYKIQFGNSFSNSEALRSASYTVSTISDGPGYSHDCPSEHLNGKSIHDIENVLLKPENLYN
Sequence of UniProt P77488 (whole entry, looked up): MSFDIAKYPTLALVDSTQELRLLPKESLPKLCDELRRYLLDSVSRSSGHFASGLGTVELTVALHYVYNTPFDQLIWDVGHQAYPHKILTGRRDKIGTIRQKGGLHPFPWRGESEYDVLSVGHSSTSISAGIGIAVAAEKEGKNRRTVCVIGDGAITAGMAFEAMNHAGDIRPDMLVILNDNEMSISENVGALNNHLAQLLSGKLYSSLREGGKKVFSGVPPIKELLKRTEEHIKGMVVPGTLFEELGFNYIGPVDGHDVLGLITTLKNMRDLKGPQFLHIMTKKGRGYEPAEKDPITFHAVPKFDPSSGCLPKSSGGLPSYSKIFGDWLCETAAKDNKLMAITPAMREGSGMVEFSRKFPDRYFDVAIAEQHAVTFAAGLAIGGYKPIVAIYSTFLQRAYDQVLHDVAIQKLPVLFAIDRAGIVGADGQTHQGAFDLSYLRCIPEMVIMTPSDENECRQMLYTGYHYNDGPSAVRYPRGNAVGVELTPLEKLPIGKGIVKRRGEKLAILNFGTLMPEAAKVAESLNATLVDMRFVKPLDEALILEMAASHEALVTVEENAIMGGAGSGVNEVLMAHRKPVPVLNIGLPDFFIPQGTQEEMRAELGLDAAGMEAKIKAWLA
Sequence of UniProt O75884 (whole entry, looked up): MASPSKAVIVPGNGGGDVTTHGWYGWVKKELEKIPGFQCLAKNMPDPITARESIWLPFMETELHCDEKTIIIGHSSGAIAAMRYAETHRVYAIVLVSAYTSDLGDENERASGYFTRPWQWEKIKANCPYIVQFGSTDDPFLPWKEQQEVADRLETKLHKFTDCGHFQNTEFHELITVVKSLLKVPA
Sequence of UniProt Q9NS75 (whole entry, looked up): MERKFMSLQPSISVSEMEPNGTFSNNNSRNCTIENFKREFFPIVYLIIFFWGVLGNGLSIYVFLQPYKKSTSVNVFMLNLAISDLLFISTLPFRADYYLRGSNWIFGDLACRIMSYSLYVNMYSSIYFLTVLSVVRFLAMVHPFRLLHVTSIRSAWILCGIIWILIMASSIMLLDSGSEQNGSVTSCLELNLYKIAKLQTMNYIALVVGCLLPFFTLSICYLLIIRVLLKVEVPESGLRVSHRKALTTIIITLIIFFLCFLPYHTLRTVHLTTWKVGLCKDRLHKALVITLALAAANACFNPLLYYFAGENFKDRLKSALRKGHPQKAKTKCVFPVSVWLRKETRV
Sequence of UniProt P57059 (whole entry, looked up): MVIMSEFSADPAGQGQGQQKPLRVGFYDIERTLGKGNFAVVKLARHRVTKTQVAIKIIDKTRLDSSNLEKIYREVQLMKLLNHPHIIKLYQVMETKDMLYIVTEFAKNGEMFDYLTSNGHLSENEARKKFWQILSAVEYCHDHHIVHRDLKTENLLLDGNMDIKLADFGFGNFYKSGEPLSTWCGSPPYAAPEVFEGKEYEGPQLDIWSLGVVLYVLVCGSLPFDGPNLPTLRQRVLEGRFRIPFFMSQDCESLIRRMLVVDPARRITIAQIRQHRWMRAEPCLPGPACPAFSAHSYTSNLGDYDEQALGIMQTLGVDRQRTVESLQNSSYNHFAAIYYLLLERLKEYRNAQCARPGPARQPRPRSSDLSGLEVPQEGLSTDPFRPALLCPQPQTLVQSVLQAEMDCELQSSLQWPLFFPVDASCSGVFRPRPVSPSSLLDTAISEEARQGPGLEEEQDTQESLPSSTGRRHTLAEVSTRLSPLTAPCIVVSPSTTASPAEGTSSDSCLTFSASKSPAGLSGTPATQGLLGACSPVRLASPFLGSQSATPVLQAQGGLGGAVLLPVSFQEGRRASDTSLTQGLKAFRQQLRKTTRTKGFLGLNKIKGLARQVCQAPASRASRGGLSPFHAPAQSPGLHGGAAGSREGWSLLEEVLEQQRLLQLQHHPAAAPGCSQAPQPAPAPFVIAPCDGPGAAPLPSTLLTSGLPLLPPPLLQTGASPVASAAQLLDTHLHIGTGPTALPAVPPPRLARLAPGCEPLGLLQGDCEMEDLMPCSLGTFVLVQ
Sequence of UniProt Q8IY84 (whole entry, looked up): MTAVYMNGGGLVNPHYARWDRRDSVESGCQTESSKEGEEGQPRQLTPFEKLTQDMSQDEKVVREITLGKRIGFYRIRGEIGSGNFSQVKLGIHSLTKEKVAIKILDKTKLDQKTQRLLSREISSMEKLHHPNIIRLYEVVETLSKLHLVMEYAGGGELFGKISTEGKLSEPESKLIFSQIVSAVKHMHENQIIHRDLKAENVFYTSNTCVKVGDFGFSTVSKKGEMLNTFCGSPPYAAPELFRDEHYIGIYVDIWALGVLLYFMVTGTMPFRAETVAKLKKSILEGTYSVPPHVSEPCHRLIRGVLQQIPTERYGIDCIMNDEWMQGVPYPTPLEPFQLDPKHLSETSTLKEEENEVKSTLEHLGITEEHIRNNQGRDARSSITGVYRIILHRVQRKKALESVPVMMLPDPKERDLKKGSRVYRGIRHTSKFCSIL
Sequence of UniProt Q9NSA0 (whole entry, looked up): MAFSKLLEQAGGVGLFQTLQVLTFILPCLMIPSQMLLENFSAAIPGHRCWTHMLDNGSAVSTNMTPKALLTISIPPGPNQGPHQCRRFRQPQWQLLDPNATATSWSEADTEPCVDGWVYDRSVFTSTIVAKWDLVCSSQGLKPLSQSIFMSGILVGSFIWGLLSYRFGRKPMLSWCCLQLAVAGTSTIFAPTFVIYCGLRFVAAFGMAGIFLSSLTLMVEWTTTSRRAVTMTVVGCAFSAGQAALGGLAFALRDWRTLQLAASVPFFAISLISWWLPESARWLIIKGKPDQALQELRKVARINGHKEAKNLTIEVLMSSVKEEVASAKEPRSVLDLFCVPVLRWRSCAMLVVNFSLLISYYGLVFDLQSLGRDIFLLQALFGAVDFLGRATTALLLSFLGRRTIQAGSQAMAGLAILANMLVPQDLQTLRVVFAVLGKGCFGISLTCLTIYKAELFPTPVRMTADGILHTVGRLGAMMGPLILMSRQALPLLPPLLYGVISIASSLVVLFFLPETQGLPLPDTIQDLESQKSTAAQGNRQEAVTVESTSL
Sequence of UniProt P11234 (whole entry, unmodified, looked up): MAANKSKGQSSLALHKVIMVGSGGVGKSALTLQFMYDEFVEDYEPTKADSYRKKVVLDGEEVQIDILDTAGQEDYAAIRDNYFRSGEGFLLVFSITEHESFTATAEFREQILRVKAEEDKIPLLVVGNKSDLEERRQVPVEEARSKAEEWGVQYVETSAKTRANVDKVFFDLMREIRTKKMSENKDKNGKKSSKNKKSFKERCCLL

SMILES | target | assay | test system | setting | scale | measurement | value
CCOC(=O)CC(SP(=O)(OC)OC)C(=O)OCC (centres unmarked) | uncharacterized protein (Anopheles coluzzii, UniProt A0A6E8VQK1) | enzyme activity, inhibitor | Sf9 cell homogenate | 0.4587 µM, 0.1667 h, with: α-naphthyl acetate substrate | baseline: no inhibitor | remaining activity | 23.5%
CC[C@@H](C)[C@@H](NC(=O)[C@@H](Cc1ccc(O)cc1)NC(=O)[C@H]1CCCN1C(=O)[C@@H](CCCNC(=N)N)NC(=O)[C@H](N)Cc1c[nH]cn1)C(=O)N[C@H](C)C(=O)N[C@H](Cc1c[nH]cn1)C(=O)N[C@H](CCCNC(=N)N)C(=O)N[C@H](CCCCNC(=O)c1cccc(S(=O)(=O)F)c1)C(=O)N[C@H](Cc1ccc(O)cc1)C(=O)N[C@H](CO)C(=O)N[C@H](Cc1ccccc1)C(N)=O | Programmed cell death 1 ligand 1, with PD-1 (Cd274, Mus musculus, UniProt Q9EP73) | PD-1-Fc binding | MC-38 | concentration not given, 48 h | – | PD-L1 blocking rate | 9.94% and 9.39% and 11.1%
CCCCCC(=O)O | Albumin (ALB, Homo sapiens, UniProt P02768) | differential scanning calorimetry | – | concentration not given, second transition, HSA 15 µM | baseline: HSA alone | melting temperature change | -2.7 °C
O=C(O)Cc1c[nH]cn1 | SLC6A6 (Homo sapiens, UniProt P31641, Y138A) | binding, microscale thermophoresis | – | 31.3 µM, room temperature, with: 50 nM labelled protein | higher = more binding | normalised MST signal | 0.105
COc1ccc(NC(=O)c2ccc(C(=N)N(C)C)cc2)c(C(=O)Nc2ccc(Cl)cn2)c1 | Ribosomal processing cysteine protease Prp (prp, Staphylococcus aureus, UniProt Q2FXS9, N63Q) | enzyme activity, inhibitor | – | 10 µM, prp 21.4 nM, with: FITC peptide substrate 0.5 µM | – | inhibition | 27.2 ± 20%
O=C(Nc1cccnn1)N1CCC(=Cc2cccc(Oc3ccc(C(F)(F)F)cn3)c2)CC1 | CAMK4 (Homo sapiens, UniProt Q16566) | enzyme activity, inhibitor | – | 10 µM, with: autocamtide-2 | – | inhibition | 5%
COc1ccc(N2C(=O)N(c3c(C)cccc3Cl)Cc3cnc(Nc4ccc(C5CCN(C)CC5)cc4OC)nc32)nc1 | MAP2K7 (Homo sapiens, UniProt O14733) | kinase activity | – | 0.5 µM | – | inhibition | -6%
CC(=O)NC[C@H]1[C@H](O)[C@H](O)[C@@H]2[C@H](O)C[C@@H](CO)N21 | β-N-acetylglucosaminidase | enzyme activity, inhibitor, colorimetric | Canavalia ensiformis | 0.644 nM, with: p-nitrophenyl GlcNAc substrate | – | inhibition | 51.3% and 49.1%
C[C@]12CC[C@@H]3c4ccc(OS(=O)(=O)O)cc4CC[C@H]3[C@@H]1CCC2=O | SLC22A11 (Homo sapiens, UniProt Q9NSA0) | substrate | CHO cells expressing human OAT4 | 5 min, pH 7.4 | – | Km | 7.7 ± 0.3 µM
CC(=O)P(=O)(O)OCCc1cn([C@H](Cc2ccccc2)C(=O)O)nn1 | dxs (Escherichia coli, UniProt P77488) | enzyme activity, inhibitor | – | with: 2 x Km pyruvate | – | IC15 | < 65 nM
COC(=O)[C@@]1(O)C[C@H]2O[C@]1(C)n1c3ccccc3c3c4c(c5c6ccccc6n2c5c31)C(=O)NC4 | MAPK3 (Homo sapiens, UniProt P27361) | ADP-Glo | – | 1.38 nM, with: MBP substrate | – | kinase activity | 102% and 95.9% and 69.1%
Cc1ncsc1-c1ccc(CNC(=O)[C@@H]2C[C@@H](O)CN2C(=O)[C@@H](NC(=O)C2(F)CC2)C(C)(C)C)c(OCCOc2ccc(CN3CCN(c4cc(-c5ccccc5O)nnc4N)CC3)cc2)c1 | SMARCA4 (Homo sapiens, UniProt P51532) | degrader, immunoblot | SMARCA4 wild-type lung cancer cells | 96 h, median of twelve cell lines | – | Dmax | 95%
[2H]c1c([2H])c([C@]2([2H])CCCN2C(=O)C(C)(C)Oc2ccc3cn[nH]c3c2)c([2H])c([2H])c1C([2H])([2H])[2H] | SIK1 (Homo sapiens, UniProt P57059) | KINOMEscan | – | 1 µM | baseline: DMSO control | remaining binding | 94%
CC1CC(C(=O)CCl)CO1 (centres unmarked) | UCHL1 (Homo sapiens, UniProt P09936) | covalent, intact protein LC-MS | – | 12.5 µM | – | labelling | 16.2%
C[C@H]1CN(c2n[nH]c3nc(N[C@H]4CC[C@H](NS(=O)(=O)CCC(F)(F)F)CC4)ncc23)CCO1 | MED23 (Homo sapiens, UniProt Q9ULK4) | inhibitor, Kinobeads competition profiling | – | 0.032 µM | baseline: vehicle | relative abundance | 1.02
Nc1ncc(-c2nc(N3CCOCC3)nc(N3CCOCC3)n2)c(C(F)F)n1 | NIM1K (Homo sapiens, UniProt Q8IY84) | KINOMEscan | – | 10 µM | – | remaining binding | 68%
COc1cc(Nc2ncc(F)c(Nc3ccc4c(n3)NC(=O)C(C)(C)O4)n2)cc(OC)c1OC | MAP3K15 (Homo sapiens, UniProt Q6ZN16) | KINOMEscan | – | 10 µM | – | inhibition | 51%
C[C@@H](NC(=O)[C@@H](N)Cc1ccc(O)cc1)C(=O)NCC(=O)N(C)[C@@H](Cc1ccccc1)C(=O)NCCO | Oprm1 (Mus musculus, UniProt P42866) | agonist | mouse spinal cord membranes | 316 nM | baseline: baseline | GTPγS binding | 22.2% and 26.8% and 30.1% and 32.2% and 21.1% and 24.8% and 23.6% and 30.5%
CN1CCN(c2cc(-c3ccncc3)c(-c3ccc4ccccc4c3)nn2)CC1 | P2Y purinoceptor 2 (P2RY2, Homo sapiens, UniProt P41231) | agonist, FLIPR | – | 12.5 µM | – | activation | -13.2%
CN(C(=O)n1cnc(-c2ccc[n+]([O-])c2)c1)C1CCCCC1 | Carboxylesterase 1C (Ces1c, Rattus norvegicus, UniProt P10959) | enzyme activity, ABPP | rat, brain | oral, 30 mg/kg/day, 7 days | baseline: vehicle | fold change | -3.5
O=C(Nc1cnccc1Cl)N1CCN(Cc2ccc3c(c2)OC(F)(F)O3)CC1 | CYSLTR2 (Homo sapiens, UniProt Q9NS75) | radioligand binding | – | 10 µM, with: [3H]LTD4 | – | inhibition of binding | 10%
Nc1ncnc2c1ncn2[C@@H]1O[C@H](COP(=O)(O)OP(=O)(O)OP(=O)(O)O)[C@@H](O)[C@H]1O | YscN wild type | – | – | – | – | Km | 1300 ± 400 µM
C=C(CN(C(=O)c1c(C(F)F)nn(C)c1F)C1CC1)c1ccc(Cl)cc1Cl | SDHD/SDHC/SDHB (Sus scrofa, UniProt A5GZW8+D0VWV4+Q007T0) | enzyme activity, inhibitor, DCIP reduction | pig | 0.4 µM, with: DCIP 5 µM | – | reaction velocity | 0.000918 µM/s and 0.000956 µM/s and 0.00126 µM/s
O=C(c1ccc(Cl)cc1)N1CCN2C(=O)N(OC(=O)N3CCOc4ccccc43)C(=O)C2C1 (centres unmarked) | Serine hydrolase RBBP9 (Homo sapiens, UniProt O75884) | MS-based ABPP | SW-620 conditioned medium | 10 µM, 1 h, 37 °C, mean protein ratio | baseline: compound over DMSO | probe labelling ratio | 1.48
C[N+]1(C)CCN(c2ccccc2)CC1 | Nicotinic acetylcholine receptor alpha1/beta1/epsilon/delta (Mus musculus, UniProt P02716+P04756+P09690+P20782) | peak current, agonist, two-electrode voltage clamp | Xenopus oocytes | 30 µM, mouse receptor | baseline: ACh 30 µM | response relative to ACh | 10%
O=S(=O)(F)c1ccc(S(=O)(=O)Nc2cc(OC(F)(F)F)cc(C3CC3)c2)c2c1CCCC2 | RALB (Homo sapiens, UniProt P11234, Y82F) | inhibitor, BODIPY-FL-GDP exchange | – | concentration not given, 24 h, 4 °C, with: Rgl2 | – | nucleotide exchange | no inhibition
O=[N+]([O-])/C=C/c1ccc2c(c1)OCO2 | TRPM8 (Homo sapiens, UniProt Q7Z2W7) | antagonist | HEK293 | 5 µM | – | remaining activity | 98.3 ± 9.84%
CN(C(=O)n1cnc(-c2ccc[n+]([O-])c2)c1)C1CCCCC1 | CALCRL (Homo sapiens, UniProt Q16602) | radioligand binding | – | 10 µM | – | inhibition | 2%
COc1cc(N)c(Cl)cc1C(=O)NC1CN2CCC1CC2 (centres unmarked) | Proto-oncogene Mas (Homo sapiens, UniProt P04201) | β-arrestin recruitment, TANGO luminescence, item: MAS1 | – | concentration not given | baseline: basal luminescence | log2 fold change | -0.008

Some of these lines once more:
SMILES | target | assay | test system | setting | scale | measurement | value
O=S(=O)(F)c1ccc(S(=O)(=O)Nc2cc(OC(F)(F)F)cc(C3CC3)c2)c2c1CCCC2 | RALB (Homo sapiens, UniProt P11234, Y82F) | inhibitor, BODIPY-FL-GDP exchange | – | concentration not given, 24 h, 4 °C, with: Rgl2 | – | nucleotide exchange | no inhibition
O=[N+]([O-])/C=C/c1ccc2c(c1)OCO2 | TRPM8 (Homo sapiens, UniProt Q7Z2W7) | antagonist | HEK293 | 5 µM | – | remaining activity | 98.3 ± 9.84%
CN(C(=O)n1cnc(-c2ccc[n+]([O-])c2)c1)C1CCCCC1 | CALCRL (Homo sapiens, UniProt Q16602) | radioligand binding | – | 10 µM | – | inhibition | 2%
